Measurements from different studies.
Each numbered part is a random draw from the data of one study; scales do not carry over between parts.

Block 1
Target: Histone acetyltransferase KAT6A, winged helix 2, GST fusion (KAT6A, Homo sapiens, UniProt Q92794, residues 85-181)
Technique: protein binding microarray
Molecule type: double-stranded DNA, one strand shown
Matrix: in vitro
Concentration: not given
Notes: 8-mer, flanks averaged, mean of 2 arrays, mostly near background
Baseline: not given
Direction: higher = stronger binding
Quantity: E-score
Target sequence (chain): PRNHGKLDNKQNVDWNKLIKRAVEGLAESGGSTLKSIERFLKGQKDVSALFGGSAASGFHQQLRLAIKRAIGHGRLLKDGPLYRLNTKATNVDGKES
Strand = GGTTAAAC; value = 0.0905
Strand = CACTAACG; value = -0.0638
Strand = TTTCCAAA; value = -0.0601
Strand = CAACGTTC; value = -0.207
Strand = GGAGTTTA; value = 0.0258
Strand = GCAGAGGA; value = 0.0204
Strand = GGCTTTTA; value = -0.132
Strand = AAACATTG; value = -0.183
Strand = GCCGATGA; value = 0.0178
Strand = ATCGTGTC; value = -0.078
Strand = ATCCTTCC; value = -0.261
Strand = CATCAGTA; value = -0.191
Strand = GGCATAAC; value = 0.0123
Strand = AAGTGCTC; value = -0.107
Strand = GGAGATTA; value = -0.0762
Strand = AGAATGAT; value = -0.183
Strand = CGCCGCTA; value = 0.203
Strand = GGAGTACA; value = -0.0274

Block 2
Target: RNA binding protein fox-1 homolog 2, RRM domain, GST-SBP tag (RBFOX2, Homo sapiens, UniProt O43251-10, residues 100-194)
Technique: RNA Bind-n-Seq
Molecule type: RNA
Matrix: in vitro
Concentration: 365 nM
Notes: natural RNA segment, single round, ends assumed
Baseline: no-protein control
Direction: higher = stronger binding
Quantity: RBNS enrichment (R)
Shared flanks, not repeated: GGGAGUUCUACAGUCCGACGAUC … UGGAAUUCUCGGGUGCCAA
Residues (chain): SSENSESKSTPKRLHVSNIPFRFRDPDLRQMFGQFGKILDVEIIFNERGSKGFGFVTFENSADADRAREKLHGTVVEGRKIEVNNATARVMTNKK
Strand = UACUGCUAGCCAAAGGGCUCGGGCCCCCCCCUGGACUGACCUGCCCAUGUAAUUUUCCCACUGCCACAGACCUCUCCAACCCAGGGCCCCUGGACAGCACAGAUCCAGUG; value = 0.685
Strand = GGUUAAAUCGAUUUUGCAUCAGUCACUGAACUGUCAGCUACGUGGCAGGAACCGGACGGAAGAAUCCUCUCCAGGAGACUGGGCUUUAGUUAGUGGCUUGAUUCCCCGGC; value = 0.578
Strand = CAGCCUCUGUGCCAUGCAGUGAGGGCUGUGGGUUCUGCCUGUUAGAACACUUCAGUAGCUAGCCCGUCUGGUUGAUUGUGCAUGGAACUGACAUGUUAACACCUGAUCAC; value = 1.45
Strand = GUUUCUUCUAUUGUAGACACCAAGUCUCCCUGAGAUUCCUGAUGGGGUAUUACCUACCAAGAUAAUGAGAGCUUCUAAGGUUGAGGGGAGCUGAAUAGUUUGCACAAGAA; value = 1.02
Strand = AAUAUUUGCUACUAGACUGUUCAUUUCUCUCUGACAUGUUUGUUGAAUGAAUAAAUAAUUUGAAACUCUACUUGAUUUAUGGAGGGUGGAAAGGGGAGGGAUGGAGAAUC; value = 0.917
Strand = CUCCUAAGUUCCAGAGGCCCCACUGUUCCAGUUUCAAGCCUUCAUUUUGGAGUCUGUUUGGGAACUUUUAAGACUUCAAAGCAAAGUUAGCUACCAGCAAUUUCUGUAAA; value = 0.302
Strand = CAUGUGGUGGCCCUACUGACUGGUAAUGGUUAGAGGCAUUUAUGGAUUUUUAGCUUUGAGGAAAAACCAUGACUUUUAACAAAUUUUUAUGGGUUAUAUGCCUAAACCCU; value = 0.392
Strand = CCUGAAGAAGGGUGUGAAGGCUGAACAAUCAUGGAUUUUUCUGAUCAAUUGUGCUUUAGGAAAUUAUUGACAGUUUUGCACAGGUUCUUGAAAACGUUAUUUAUAAUGAA; value = 0.392

Block 3
Target: RING finger protein unkempt homolog, zinc fingers 1-6, GST-SBP tag (UNK, Homo sapiens, UniProt Q9C0B0, residues 30-357)
Technique: RNA Bind-n-Seq
Molecule type: RNA
Matrix: in vitro
Concentration: not given
Notes: RNA with constant flanks, human-mouse chimeric sites, ends assumed
Baseline: input RNA pool
Direction: higher = stronger binding
Quantity: bound/input enrichment
Shared flanks, not repeated: GGGAGUUCUACAGUCCGACGAUC … CAACAGAGGAUUGAGCAUCA
Target sequence (chain): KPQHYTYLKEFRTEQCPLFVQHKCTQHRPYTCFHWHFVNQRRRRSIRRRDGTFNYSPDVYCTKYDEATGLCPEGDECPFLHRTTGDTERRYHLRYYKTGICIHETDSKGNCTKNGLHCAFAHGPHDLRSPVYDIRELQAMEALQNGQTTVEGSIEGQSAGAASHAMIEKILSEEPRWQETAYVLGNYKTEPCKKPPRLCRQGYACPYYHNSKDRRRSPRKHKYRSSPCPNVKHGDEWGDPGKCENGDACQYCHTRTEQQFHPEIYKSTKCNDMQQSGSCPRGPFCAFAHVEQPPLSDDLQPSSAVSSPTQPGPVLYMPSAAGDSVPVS
Strand = GUGUCCUGCUUUCAACUAUCACUGAGGAGGCAUCUCUACUAUUCUGUGAGCAUCAGGACUGUAGCGCUGUGUCACCACAUGAGAGUUCAGAAGCAGCCUUUCUGUGGAGGGUGGGAAUGA; value = 0.179 ratio
Strand = GAGUCGAGCAAACUUGAAACUACAGAAUAUCUUGCAGAGCUUCGGUGCACUUGCUUGGCGAUAGCAUUGGGGUUUUAUAGGUUCUGGAAGGAGAACUGACGAUGAUGCUGCCGCUGCUGC; value = 0.0945 ratio
Strand = CAGGGCAUCAUCUCUCGUGCUGUUAGACACCUGUUCAAGAGUAUUGAUGAGAAAAAGACCUCAGCGAUUAAAAAUGGGCUGCCCCCUCCUGAAUUCAAAGUGAAUGCCCAGUUCCUAGAG; value = 0.33 ratio
Strand = UCUGAGGUACCACUGAAGAGACCUUAAAAGGAGUCAUUGAGGGCUCUGUUCGUGCAAGAAUAGUCACUGAUCGGGAAACUGGUUCUUCCAAAGGGUUUGGUUUUGUAGACUUUAAUAGUG; value = 0.908 ratio
Strand = GCCACCAGAUCCCAGAAACAUGACUCUUGCUGCCUACAAAGAGAAGAUGAAGGAGCUCCCGCUGGUGUCCUUGUUCUGCUCCUGCUUCUUGUCUGAUCCCCUGAAUAAGUCGUCCUACAA; value = 0.28 ratio
Strand = UAAAUUAGGGCUGCCGUUUUCUGUUUCUCCCUGGGCUGCAGACAGCUAGAAGAUUUUAUCUAGCUUAUACAAGGCUGCUGGAGCUUGCUCUUUUUUUCCACGAGGGUGUUUUUGGCUGCA; value = 0.53 ratio
Strand = UUGUGCAAUGAUGCUUGAGAUGGUUUUUGCAAAAGCAGAAAUCGCUGCAAGGUAAUCCUAAUAGAGAAAAGUGGUAUUUUAAACCUUUGAAAUAAAUGGAUGUAACUGUACCUUGGUACA; value = 1.11 ratio
Strand = GGGACUGAUUCAUCCCAAGGACAGGCCGCCCAGUCUGAUGCCUGGACUGACGACAGUAUGGAAGGGCCUAGUCAAAAUGUUGAAGCUGAGUCAAUUCAGGAUGCCAUGAGUAUGGAAGAG; value = 0.25 ratio

Block 4
Target: Centromere-binding protein 1, full length, His-tagged (CBF1, Saccharomyces cerevisiae, UniProt P17106, residues 1-351)
Chain of UniProt P17106 (whole entry, looked up): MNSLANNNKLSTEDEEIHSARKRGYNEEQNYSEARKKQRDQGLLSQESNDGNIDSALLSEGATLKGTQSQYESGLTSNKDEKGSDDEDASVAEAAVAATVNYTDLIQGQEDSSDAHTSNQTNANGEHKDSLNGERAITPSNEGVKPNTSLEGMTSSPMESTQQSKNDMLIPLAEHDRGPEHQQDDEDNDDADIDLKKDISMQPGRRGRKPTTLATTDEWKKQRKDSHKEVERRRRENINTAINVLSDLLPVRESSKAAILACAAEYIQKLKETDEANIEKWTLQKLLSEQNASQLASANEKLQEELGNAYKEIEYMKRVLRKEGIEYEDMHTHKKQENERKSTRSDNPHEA
Technique: competition protein-binding microarray
Molecule type: double-stranded DNA, one strand shown
Matrix: in vitro
Concentration: 2 µM
Notes: whole 60-bp probe, lowest competitor level
With: Pho4 competitor, 0.05 µM
Direction: higher = stronger binding
Quantity: fluorescence intensity
Shared flanks, not repeated: … GTCTTGATTCGCTTGACGCTGCTG
Strand = TGCGCAACAACTTGCCAGGTGGGTGTATGTCTAGAA; value = 55.3 a.u.
Strand = AAAGCGGTAATTTGTTGTGTGGGTGCAGATATCTAT; value = 82 a.u.
Strand = ACAGCCACTGGCGGCCGCGTGCTTCCTCCCCTCCCT; value = 81.1 a.u.
Strand = CGTCCTAGTGATTGTTGAGTGGGTGCCATGAGGAAG; value = 92.7 a.u.
Strand = GTGCGGCCATTGCTGAAAATCGCAAAACCCACAGAG; value = 84.4 a.u.
Strand = AAATTACTAAGTTGCGCCGTGGGTGACGCCGTATGA; value = 66.1 a.u.
Strand = TCAAAAACGGACATTACTTGCCAGACGCGAATGATA; value = 68.4 a.u.
Strand = CTTTCCCGATCTTGCCGGGTGGGTGTAGCACATTTG; value = 65.3 a.u.
Strand = CGATCAAGCGACCTACACGTGCTTTCAAGGCGCATT; value = 1190 a.u.
Strand = CACACCGCGAGAAACATCGTGGAAGATTACGGAGCT; value = 63.2 a.u.
Strand = AAAGCGGTAATTTGTCACCATACTTCACATATCTAT; value = 93.9 a.u.
Strand = GGAAACTTTTTAAAGCACGTGGAAGAGATATGAAGG; value = 2030 a.u.
